Experimental data gathered from unrelated publications.
Compare with care: the assays were run in different laboratories. Several values in a cell are separate wells, animals, samples, runs or records. ± marks the error that the study gave. Converted amounts (≈) assume the structure as drawn.

`N=C(N)c1ccc(OCc2ccc(Br)cc2COc2ccc(C(=N)N)cc2)cc1` — result for “MIC in combination”: 6.25 µg/mL (Klebsiella pneumoniae; ATCC 13883; concentration not given, together with: rifampicin).
With `C[C@@H](O)[C@H]1C(=O)N2C(C(=O)O)=C(S[C@@H]3CN[C@H](C(=O)N(C)C)C3)[C@H](C)[C@H]12` the MIC was at most 0.5 µg/mL (Salmonella enterica Infantis; broth microdilution; clinical isolate RKI 277/14).
For `CC(C)C(=O)OC[C@@]1(F)O[C@@H](n2cnc(-c3c[nH]c(=O)[nH]c3=O)c2)[C@H](OC(=O)C(C)C)[C@@H]1OC(=O)C(C)C`, the EC50 was over 100 µM (Dengue virus; viral replication; Huh-7, DENV-2; 48 h).
For `CNC(C)C1CCC(N)C(OC2C(N)CC(N)C(OC3OCC(C)(O)C(NC)C3O)C2O)O1` (stereo not drawn), the MIC was 2 µg/mL (Pseudomonas aeruginosa; clinical isolate RKI-No_130/15).
With `COCC(=O)N1CCCC(C(=O)NCc2nc(-c3ccccc3)cs2)C1` (racemic) the EC50 was 0.19 ± 0.041 µM (Plasmodium falciparum; SYBR Green; 3D7; 72 h).
With `CC(C)C(=O)OC[C@@]1(F)O[C@@H](n2cnc(-c3cnc(=O)[nH]c3)c2)[C@H](OC(=O)C(C)C)[C@@H]1OC(=O)C(C)C` the EC50 was over 100 µM (Dengue virus; viral replication; Huh-7, DENV-4; 48 h).
The growth of `COC(=O)[C@@H](CCSC)NCc1cc2ccccc2nc1SC` is reported as 76.9% (Pseudomonas aeruginosa; 32 µg/mL, together with: pentamidine 100 µM; relative to: control).
`CC(C)C(=O)OC[C@@]1(F)O[C@@H](n2cnc(-c3cnc(N)nc3)c2)[C@H](OC(=O)C(C)C)[C@@H]1OC(=O)C(C)C` has an EC50 of 27 µM (Dengue virus; viral replication; Huh-7, DENV-4; 48 h).
For `CCNCc1cnn(-c2ccc(-n3ccc(Cl)c(Cl)c3=O)cc2)c1C(F)(F)F`, the effective concentration was 100 nM (amyloid beta oligomers; dendritic length, MAP2 staining; primary rat hippocampal neurons; together with: 7PA2 conditioned medium).
`CC(C)C[C@H](NC(=O)[C@H](Cc1cccc2ccccc12)NC(=O)OCc1ccccc1)C(=O)NC(C[C@@H]1CCNC1=O)C1OC1S(C)(=O)=O` (stereo partly drawn) gave an EC90 of over 20 µM (Norwalk virus; RT-qPCR, measured: replicon RNA; HG23, GI-1 replicon; 96 h).
For `Nc1nc(-c2ccccc2)nc2[nH]nc(Nc3ccc(C(F)(F)F)cc3)c12`, the clinical score was 0.22 (coxsackievirus B3; 31-1-93, NMRI mice, CVB3 chronic myocarditis; oral, 100 mg/kg twice daily, day 12, dosed days 1 to 7, score scale 0 to 7; direction not given).
`Cc1cc(Nc2ccc(S(F)(F)(F)(F)F)cc2)n2nc(C(C)(F)F)nc2n1` — result for “PC50 parasite clearance time median”: 24 h (Plasmodium falciparum; microscopy; P. falciparum malaria patients; oral, 250 mg).
`CC1(C)S[C@@H]2[C@H](NC(=O)[C@H](N)c3ccccc3)C(=O)N2[C@H]1C(=O)O` gave an MIC of over 16 µg/mL (Salmonella enterica serovar München; broth microdilution; clinical isolate RKI-No 419/14).
For `Cc1cc(=O)oc2c(F)c(O)c(F)cc12`, “maximum germination stimulation” read 3% (Phelipanche ramosa; stimulant; 1 µM; relative to: (±)-GR24).
`CC(C)n1ncc2c(C(=O)NCC3(C)CNC3)cc(C3CC3)nc21` has a cell protection of -0.141% and 0.704% (Enterovirus D68; cytopathic effect; RD, US/KY/14-18953; 50 nM).
`C[C@@H](O)[C@H]1C(=O)N2C(C(=O)O)=C(SCCN=CN)C[C@H]12` has a bacterial load of 1.52 log CFU and 2.3 log CFU and 2 log CFU and 0 log CFU and 1.82 log CFU (Escherichia coli; 2904, female ICR mice, peritonitis, blood; dose not given, 168 h).
With `C[C@@H](CO)CCC[C@@H](C)[C@H]1CC[C@H]2[C@@H]3CC=C4C[C@@H](O)CC[C@]4(C)[C@H]3CC[C@]12C` the EC90 was 2.62 µM (human rotavirus; viral replication; Caco-2, DS-1).
The inhibition of `CCc1nn(C)c2nc(-c3ccc(C(=O)O)cc3)nc(NCc3ccc(F)cc3)c12` is reported as 93.4% and 93.9% (Cryptosporidium parvum; parasite growth, immunofluorescence imaging; HCT-8, Iowa; 53.9 µM).
For `COc1ncncc1-c1cn([C@@H]2O[C@](F)(CO)[C@@H](O)[C@H]2O)cn1`, the EC50 was over 100 µM (Dengue virus; viral replication; Huh-7, DENV-2; 48 h).
`CC[C@H]1OC(=O)[C@H](C)[C@@H](O[C@H]2C[C@@](C)(OC)[C@@H](O)[C@H](C)O2)[C@H](C)[C@@H](O[C@@H]2O[C@H](C)C[C@H](N(C)C)[C@H]2O)[C@](C)(O)C[C@@H](C)C(=O)[C@H](C)[C@@H](O)[C@]1(C)O` — result for growth inhibition: “inhibited” (Vibrio natriegens; ATCC 14048 SbmA deletion, BHI medium; 25 µM, 6 h, 37 °C).
`CCOC(=O)CSC1=N/C(=C\c2ccc(C(C)C)cc2)C(=O)N1c1ccccc1`: “inhibition zone diameter” 14 ± 0.2 mm (Fusarium solani; concentration not given).
The MIC of `Cc1ccc(CCC(=O)Nc2nnc(S(N)(=O)=O)s2)cc1` is reported as over 784 µM (Lactobacillus; ATCC 53103).
For `COc1ncc(-c2cn([C@@H]3O[C@](F)(CO)[C@@H](O)[C@H]3O)cn2)c(N)n1`, the EC50 was over 100 µM (Dengue virus; viral replication; Huh-7, DENV-2; 48 h).
The MIC90 of `CO[C@H]1/C=C/O[C@@]2(C)Oc3c(C)c(O)c4c(c3C2=O)C2=NC3(CCN(CC(C)C)CC3)NC2=C(NC(=O)/C(C)=C\C=C\[C@H](C)[C@H](O)[C@@H](C)[C@@H](O)[C@@H](C)[C@H](OC(C)=O)[C@@H]1C)C4=O` is reported as 9100 µM (≈ 7710 µg/mL) (Mycobacteroides abscessus).
The MIC of `CC(=O)NC[C@H]1CN(c2ccc(N3CCOCC3)c(F)c2)C(=O)O1` is reported as 2.96 µM (Enterococcus raffinosus; ATCC 49464).
The inhibition of `Cc1cc(OC(C)C)ccc1C(=O)C(C)(C)NC(=O)c1sccc1C` is reported as 78.7 ± 9.1% (Botrytis cinerea; appressorium formation; B05.10; 0.1 µg/mL).
`CN[C@H](CC(C)C)C(=O)N[C@H]1C(=O)N[C@@H](CC(N)=O)C(=O)N[C@H]2C(=O)N[C@H]3C(=O)N[C@H](C(=O)N[C@H](C(=O)O)c4cc(O)cc(O)c4-c4cc3ccc4O)[C@H](O)c3ccc(c(Cl)c3)Oc3cc2cc(c3O[C@@H]2O[C@H](CO)[C@@H](O)[C@H](O)[C@H]2O[C@H]2C[C@](C)(N)[C@H](O)[C@H](C)O2)Oc2ccc(cc2Cl)[C@H]1O` gave an MIC50 of 0.5 µg/mL (≈ 0.345 µM) (Streptococcus pneumoniae).
`COc1ncc(-c2cn([C@@H]3O[C@](F)(COC(=O)C(C)C)[C@@H](OC(=O)C(C)C)[C@H]3OC(=O)C(C)C)cn2)cn1` gave an EC50 of over 100 µM (Dengue virus; viral replication; Huh-7, DENV-4; 48 h).
`COC(=O)[C@H](Cc1c[nH]c2ccccc12)NCc1cc2ccccc2nc1OC` has a growth of 56.4% (Pseudomonas aeruginosa; 2 µg/mL, together with: pentamidine 100 µM; relative to: control).
`CCCCCCCCCC(=O)N[C@@H](Cc1c[nH]c2ccccc12)C(=O)N[C@H](CC(N)=O)C(=O)N[C@@H](CC(=O)O)C(=O)N[C@@H]1C(=O)NCC(=O)N[C@@H](CCCN)C(=O)N[C@@H](CC(=O)O)C(=O)N[C@H](C)C(=O)N[C@@H](CC(=O)O)C(=O)NCC(=O)N[C@H](CO)C(=O)N[C@@H]([C@H](C)CC(=O)O)C(=O)N[C@@H](CC(=O)c2ccccc2N)C(=O)O[C@@H]1C` gave an MIC of 0.125 µg/mL (Staphylococcus aureus; broth microdilution; MRSA USA300, Mueller-Hinton broth, Mg2+ 10 mg/L; 16 h, 37 °C, together with: Ca2+ 10 mM).
`CCCCc1ccc(CNc2nc(N(C)C)nc(N(C)C)c2/N=N/c2ccc(Cl)cc2)cc1` — result for “body length decrease”: 18% (Ostrinia furnacalis; 10 µM, 6 days, larvae, artificial diet).
`CC(C)C[C@H](NC(=O)[C@H](Cc1cccc2ccccc12)NC(=O)OCc1ccccc1)C(=O)N[C@H](CCl)C[C@@H]1CCCNC1=O` has an EC50 of over 10 µM (Norwalk virus; replicon RNA level, RT-qPCR; HG23 cells, GI.1 replicon; 96 h).
`CCOc1nc(N)ncc1-c1cn([C@@H]2O[C@](F)(COC(=O)C(C)C)[C@@H](OC(=O)C(C)C)[C@H]2OC(=O)C(C)C)cn1` has an EC50 of 14.1 µM (Dengue virus; viral replication; Huh-7, DENV-2; 48 h).
Under “inhibition zone diameter”, `O=C1/C(=C/c2ccc([N+](=O)[O-])cc2[N+](=O)[O-])NC(=S)N1c1ccccc1` is recorded as 20 ± 0.91 mm (Fusarium solani; concentration not given).
For `CC(C)C(=O)OC[C@@]1(F)O[C@@H](n2cnc(-c3c[nH]c(=O)nc3N)c2)[C@H](OC(=O)C(C)C)[C@@H]1OC(=O)C(C)C`, the EC50 was over 100 µM (Dengue virus; viral replication; Huh-7, DENV-4; 48 h).
`N=C(N)c1ccc(OCc2ccc(-c3ccccc3)cc2COc2ccc(C(=N)N)cc2)cc1`: “MIC in combination” 6.25 µg/mL (Klebsiella pneumoniae; ATCC 13883; concentration not given, together with: rifampicin).
The EC50 of `Cc1ccc(N(c2ccc(NC(=O)CN(C)c3ccccc3N3CCCC3=O)cc2)C(C)C)cc1` is reported as 0.005 µM (Plasmodium falciparum; parasite growth, LDH activity; 3D7 asexual stage; 72 h).
`C[C@@H](O)[C@H]1C(=O)N2C(C(=O)O)=C(S[C@@H]3CN[C@H](C(=O)N(C)C)C3)[C@H](C)[C@H]12` — result for “reduction of bacterial load”: 90% (Klebsiella pneumoniae; ATCC 700603, mouse lung infection, lung; intraperitoneal, 10 mg/kg, 24 h).
`CC(C)c1ccc(/C=C2\N=C(SCc3ccc([N+](=O)[O-])cc3)N(c3ccccc3)C2=O)cc1`: “inhibition zone diameter” 15 ± 0.59 mm (Fusarium solani; concentration not given).

Repeated from above:
For `COc1ncncc1-c1cn([C@@H]2O[C@](F)(CO)[C@@H](O)[C@H]2O)cn1`, the EC50 was over 100 µM (Dengue virus; viral replication; Huh-7, DENV-2; 48 h).
`CC[C@H]1OC(=O)[C@H](C)[C@@H](O[C@H]2C[C@@](C)(OC)[C@@H](O)[C@H](C)O2)[C@H](C)[C@@H](O[C@@H]2O[C@H](C)C[C@H](N(C)C)[C@H]2O)[C@](C)(O)C[C@@H](C)C(=O)[C@H](C)[C@@H](O)[C@]1(C)O` — result for growth inhibition: “inhibited” (Vibrio natriegens; ATCC 14048 SbmA deletion, BHI medium; 25 µM, 6 h, 37 °C).
`CCOC(=O)CSC1=N/C(=C\c2ccc(C(C)C)cc2)C(=O)N1c1ccccc1`: “inhibition zone diameter” 14 ± 0.2 mm (Fusarium solani; concentration not given).
